Assay results gathered from unrelated publications.
Numbered parts are unrelated; each lists some results of a single study. “And” joins repeats or separate records; there may be more than shown.
Chain of UniProt P00519 (whole entry, unmodified, looked up): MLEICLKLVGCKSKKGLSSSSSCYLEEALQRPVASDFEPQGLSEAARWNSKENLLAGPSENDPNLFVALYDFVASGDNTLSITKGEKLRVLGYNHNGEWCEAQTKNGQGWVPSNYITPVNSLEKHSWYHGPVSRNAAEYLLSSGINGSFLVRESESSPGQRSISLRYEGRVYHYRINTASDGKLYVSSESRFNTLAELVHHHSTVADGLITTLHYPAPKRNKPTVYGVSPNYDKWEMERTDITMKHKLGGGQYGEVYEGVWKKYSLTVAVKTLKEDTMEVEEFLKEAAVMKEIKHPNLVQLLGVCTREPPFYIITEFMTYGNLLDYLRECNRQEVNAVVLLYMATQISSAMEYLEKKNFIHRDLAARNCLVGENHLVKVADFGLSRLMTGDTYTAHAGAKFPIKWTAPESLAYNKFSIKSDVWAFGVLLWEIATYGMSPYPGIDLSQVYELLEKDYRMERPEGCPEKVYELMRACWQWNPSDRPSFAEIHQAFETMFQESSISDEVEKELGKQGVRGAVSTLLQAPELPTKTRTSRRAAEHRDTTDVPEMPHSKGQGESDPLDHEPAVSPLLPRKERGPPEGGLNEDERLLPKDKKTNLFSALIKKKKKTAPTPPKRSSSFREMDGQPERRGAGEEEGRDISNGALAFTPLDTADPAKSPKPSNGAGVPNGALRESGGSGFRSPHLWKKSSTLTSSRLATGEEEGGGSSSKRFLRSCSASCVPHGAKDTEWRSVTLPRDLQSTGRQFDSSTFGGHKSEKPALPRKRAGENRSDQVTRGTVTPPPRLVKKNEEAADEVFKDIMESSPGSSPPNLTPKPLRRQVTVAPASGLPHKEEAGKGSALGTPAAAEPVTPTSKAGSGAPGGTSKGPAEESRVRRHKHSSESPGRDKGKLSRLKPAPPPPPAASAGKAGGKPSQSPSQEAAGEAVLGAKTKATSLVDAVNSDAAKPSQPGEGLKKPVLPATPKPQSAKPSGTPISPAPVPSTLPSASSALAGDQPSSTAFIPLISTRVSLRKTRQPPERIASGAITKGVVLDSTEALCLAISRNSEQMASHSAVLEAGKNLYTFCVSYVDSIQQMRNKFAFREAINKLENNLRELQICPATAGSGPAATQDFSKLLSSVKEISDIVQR
Chain of UniProt Q8TDR2 (whole entry, looked up): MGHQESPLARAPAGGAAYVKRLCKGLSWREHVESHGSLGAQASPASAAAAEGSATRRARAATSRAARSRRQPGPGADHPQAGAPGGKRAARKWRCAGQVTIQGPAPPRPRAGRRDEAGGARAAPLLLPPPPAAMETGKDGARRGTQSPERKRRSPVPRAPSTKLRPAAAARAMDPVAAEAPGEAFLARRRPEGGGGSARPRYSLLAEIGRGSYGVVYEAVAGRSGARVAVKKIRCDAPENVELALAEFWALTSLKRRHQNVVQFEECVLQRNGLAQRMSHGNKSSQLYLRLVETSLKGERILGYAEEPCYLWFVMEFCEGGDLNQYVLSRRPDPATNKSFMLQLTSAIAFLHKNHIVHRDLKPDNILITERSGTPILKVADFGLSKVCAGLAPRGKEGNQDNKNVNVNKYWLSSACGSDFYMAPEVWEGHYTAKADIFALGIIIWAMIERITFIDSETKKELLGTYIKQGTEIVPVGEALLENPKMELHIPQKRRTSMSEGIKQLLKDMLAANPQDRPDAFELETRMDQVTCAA
Chain of UniProt Q8IVW4 (whole entry, looked up): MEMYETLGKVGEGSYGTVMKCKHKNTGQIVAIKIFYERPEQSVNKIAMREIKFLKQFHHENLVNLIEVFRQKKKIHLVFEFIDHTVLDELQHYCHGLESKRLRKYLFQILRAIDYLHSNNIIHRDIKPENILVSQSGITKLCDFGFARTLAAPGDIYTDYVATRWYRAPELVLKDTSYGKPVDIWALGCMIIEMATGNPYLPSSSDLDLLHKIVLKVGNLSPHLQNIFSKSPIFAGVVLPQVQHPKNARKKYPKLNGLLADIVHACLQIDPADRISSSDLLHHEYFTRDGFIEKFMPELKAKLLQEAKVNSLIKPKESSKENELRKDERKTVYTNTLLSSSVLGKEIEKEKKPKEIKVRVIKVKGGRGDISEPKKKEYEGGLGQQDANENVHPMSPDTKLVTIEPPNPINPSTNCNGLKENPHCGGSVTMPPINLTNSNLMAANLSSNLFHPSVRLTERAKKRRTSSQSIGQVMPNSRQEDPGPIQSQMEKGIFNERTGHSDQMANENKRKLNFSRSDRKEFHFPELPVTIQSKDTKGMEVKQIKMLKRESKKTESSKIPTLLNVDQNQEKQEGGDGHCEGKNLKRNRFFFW
Chain of UniProt P42338 (whole entry, looked up): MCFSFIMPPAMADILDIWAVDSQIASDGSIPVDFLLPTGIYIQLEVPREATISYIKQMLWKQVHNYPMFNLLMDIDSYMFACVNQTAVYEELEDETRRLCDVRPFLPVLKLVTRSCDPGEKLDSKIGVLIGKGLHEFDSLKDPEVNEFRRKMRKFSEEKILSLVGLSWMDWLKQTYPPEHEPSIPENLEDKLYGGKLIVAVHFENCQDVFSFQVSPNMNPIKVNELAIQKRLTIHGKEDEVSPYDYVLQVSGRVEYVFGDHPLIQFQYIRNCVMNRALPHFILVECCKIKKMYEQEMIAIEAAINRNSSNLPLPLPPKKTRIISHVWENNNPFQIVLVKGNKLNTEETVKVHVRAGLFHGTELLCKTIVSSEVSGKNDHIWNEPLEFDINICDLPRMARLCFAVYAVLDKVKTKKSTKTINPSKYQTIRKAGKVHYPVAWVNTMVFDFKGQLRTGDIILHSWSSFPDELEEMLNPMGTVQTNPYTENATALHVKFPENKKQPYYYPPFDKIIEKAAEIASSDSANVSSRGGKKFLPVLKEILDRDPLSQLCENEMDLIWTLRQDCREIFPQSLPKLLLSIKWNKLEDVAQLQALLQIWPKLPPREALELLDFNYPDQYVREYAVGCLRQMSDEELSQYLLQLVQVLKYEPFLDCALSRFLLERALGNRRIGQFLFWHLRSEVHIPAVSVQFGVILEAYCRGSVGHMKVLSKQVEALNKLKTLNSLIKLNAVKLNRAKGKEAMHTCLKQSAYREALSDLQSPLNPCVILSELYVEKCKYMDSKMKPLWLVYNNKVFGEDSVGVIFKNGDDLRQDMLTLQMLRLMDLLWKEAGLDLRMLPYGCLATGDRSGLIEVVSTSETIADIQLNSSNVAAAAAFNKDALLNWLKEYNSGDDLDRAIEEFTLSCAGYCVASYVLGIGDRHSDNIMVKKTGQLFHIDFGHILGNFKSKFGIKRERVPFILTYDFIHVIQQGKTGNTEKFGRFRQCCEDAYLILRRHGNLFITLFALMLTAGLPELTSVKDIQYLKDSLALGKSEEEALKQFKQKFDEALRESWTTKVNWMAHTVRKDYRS
Chain of UniProt Q9UPE1 (whole entry, looked up): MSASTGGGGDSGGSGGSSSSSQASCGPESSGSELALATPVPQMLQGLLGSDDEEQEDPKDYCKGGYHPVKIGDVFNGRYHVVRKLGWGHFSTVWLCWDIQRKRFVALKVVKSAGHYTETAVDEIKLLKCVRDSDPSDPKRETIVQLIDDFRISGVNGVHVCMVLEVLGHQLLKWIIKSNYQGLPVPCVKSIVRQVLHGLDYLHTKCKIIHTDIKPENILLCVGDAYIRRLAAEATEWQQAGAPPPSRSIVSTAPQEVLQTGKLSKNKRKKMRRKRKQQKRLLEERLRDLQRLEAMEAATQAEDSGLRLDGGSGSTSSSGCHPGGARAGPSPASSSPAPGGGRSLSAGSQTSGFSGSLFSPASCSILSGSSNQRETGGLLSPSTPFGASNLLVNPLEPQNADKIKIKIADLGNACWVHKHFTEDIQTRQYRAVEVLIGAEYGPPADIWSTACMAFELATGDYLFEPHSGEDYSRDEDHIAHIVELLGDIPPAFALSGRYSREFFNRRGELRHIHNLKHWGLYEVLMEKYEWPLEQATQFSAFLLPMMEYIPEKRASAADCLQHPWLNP
Chain of UniProt Q9UIK4 (whole entry, looked up): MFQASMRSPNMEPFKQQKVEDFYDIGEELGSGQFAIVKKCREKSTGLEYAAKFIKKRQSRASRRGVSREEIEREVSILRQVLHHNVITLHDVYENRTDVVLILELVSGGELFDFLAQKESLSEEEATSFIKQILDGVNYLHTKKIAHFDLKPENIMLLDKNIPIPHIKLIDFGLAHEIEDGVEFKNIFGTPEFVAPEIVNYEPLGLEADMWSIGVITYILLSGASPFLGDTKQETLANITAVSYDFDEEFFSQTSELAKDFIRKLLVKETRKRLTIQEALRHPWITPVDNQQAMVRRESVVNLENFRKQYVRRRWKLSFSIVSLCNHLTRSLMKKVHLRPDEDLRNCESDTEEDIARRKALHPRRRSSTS
Chain of UniProt O14757 (whole entry, looked up): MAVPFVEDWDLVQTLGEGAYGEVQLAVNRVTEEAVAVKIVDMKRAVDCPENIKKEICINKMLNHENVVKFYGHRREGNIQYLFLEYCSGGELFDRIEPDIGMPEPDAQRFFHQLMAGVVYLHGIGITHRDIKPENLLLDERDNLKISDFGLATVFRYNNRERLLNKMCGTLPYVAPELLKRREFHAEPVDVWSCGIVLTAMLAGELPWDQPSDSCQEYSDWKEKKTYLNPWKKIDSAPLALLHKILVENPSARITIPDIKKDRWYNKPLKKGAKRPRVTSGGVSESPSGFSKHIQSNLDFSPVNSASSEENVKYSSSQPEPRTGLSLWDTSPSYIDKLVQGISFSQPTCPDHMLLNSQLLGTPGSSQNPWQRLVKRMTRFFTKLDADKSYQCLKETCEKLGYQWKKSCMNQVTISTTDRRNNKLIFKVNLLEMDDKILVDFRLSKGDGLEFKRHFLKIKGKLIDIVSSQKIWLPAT

Series 1
SMILES: CSc1cccnc1N1CCN(Cc2nc3ccccc3[nH]2)CC1
Tested at: 1 µM
| target | effect on | technique | notes | relative to | remaining binding [%] |
| --- | --- | --- | --- | --- | --- |
| SRPK3 (Homo sapiens, UniProt Q9UPE1) | cell-free assay | competition with immobilised ligand |  |  | 100 |
| DAPK2 (Homo sapiens, UniProt Q9UIK4) | cell-free assay | competition with immobilised ligand |  |  | 100 |
| BMPR1A (Homo sapiens, UniProt P36894) | binding | competition with immobilised ligand |  |  | 100 |
| DAPK1 (Homo sapiens, UniProt P53355) | cell-free assay | competition with immobilised ligand |  |  | 100 |
| Tyrosine-protein kinase ABL1, non-phosphorylated (ABL1, Homo sapiens, UniProt P00519, F317I) | cell-free assay | competition with immobilised ligand |  |  | 100 |
| GSK3A (Homo sapiens, UniProt P49840) | cell-free assay | competition with immobilised ligand |  |  | 100 |
| CHEK1 (Homo sapiens, UniProt O14757) | cell-free assay | competition with immobilised ligand |  |  | 94 |
| LATS1 (Homo sapiens, UniProt O95835) | cell-free assay | competition with immobilised ligand |  |  | 100 |
| PIK3CB (Homo sapiens, UniProt P42338) | cell-free assay | competition with immobilised ligand |  |  | 74 |
| ANKK1 (Homo sapiens, UniProt Q8NFD2) | cell-free assay | competition with immobilised ligand |  |  | 92 |
| STK35 (Homo sapiens, UniProt Q8TDR2) | cell-free assay | competition with immobilised ligand |  |  | 100 |
| MAP4K3 (Homo sapiens, UniProt Q8IVH8) | cell-free assay | competition with immobilised ligand |  |  | 100 |
| PKMYT1 (Homo sapiens, UniProt Q99640) | cell-free assay | competition with immobilised ligand |  |  | 100 |
| CDKL3 (Homo sapiens, UniProt Q8IVW4) | binding | competition with immobilised ligand |  |  | 100 |
| RET (Homo sapiens, UniProt P07949, V804M) | cell-free assay | competition with immobilised ligand |  |  | 100 |
| TYRO3 (Homo sapiens, UniProt Q06418) | cell-free assay | competition with immobilised ligand |  |  | 100 |
| ABL1 (Homo sapiens, UniProt P00519, E255K) |  | KINOMEscan | E255K mutant, phosphorylated | control | 67 |
| CDK7 (Homo sapiens, UniProt P50613) | cell-free assay | competition with immobilised ligand |  |  | 61 |
| MATK (Homo sapiens, UniProt P42679) | cell-free assay | competition with immobilised ligand |  |  | 45 |

Series 2
Structure (SMILES): Cc1ccc(NC(=O)c2ccnc(C(F)(F)F)c2)cc1-c1cc(OCCO)nc(N2CCOCC2)c1
Tested at: 1 µM
| target | effect on | technique | remaining binding [%] |
| --- | --- | --- | --- |
| ABL1 (Homo sapiens, UniProt P00519, F317I) |  |  | 83 |
| STK35 (Homo sapiens, UniProt Q8TDR2) | binding | competition with immobilised ligand | 98 |
| MYLK2 (Homo sapiens, UniProt Q9H1R3) | binding | competition with immobilised ligand | 98 |
| PLK2 (Homo sapiens, UniProt Q9NYY3) | binding |  | 78 |

Series 3
Cell line: mouse MPNST tumor cells
Technique: high-content nuclear imaging
Item: cell number
Tested at: 10 µM
Time: 12 h
Notes: mean of 2 replicates
Relative to: plate mean
Reading: higher = more cells
| SMILES | nuclei count |
| --- | --- |
| Cc1nc2n(c(=O)c1CCN1CCC(c3noc4cc(F)ccc34)CC1)CCCC2 | 2.52 z-score and 1.31 z-score |
| N=C(N)NS(=O)(=O)c1ccc(N)cc1 | 0.552 z-score |
| CN(C)c1ccccc1CN1CCCN(Cc2ccccc2N(C)C)C1c1ccncc1 | -3.54 z-score |

Series 4
Cell line: A-375
Tested at: 100 µM
Time: 36 h
| SMILES | viability |
| --- | --- |
| CC(C)C(=O)c1c(C(C)C)nn2ccccc12 | 88.4% |
| CO/N=C(\C(=O)N[C@@H]1C(=O)N2C(C(=O)O)=C(COC(N)=O)CS[C@H]12)c1ccco1 | 118% |
| COc1ccc(NS(=O)(=O)c2ccc(N)cc2)nn1 | 102% |
| COc1ccc([C@@H]2CC(=O)c3c(O)cc(O[C@@H]4O[C@H](CO[C@@H]5O[C@@H](C)[C@H](O)[C@@H](O)[C@H]5O)[C@@H](O)[C@H](O)[C@H]4O)cc3O2)cc1O | 110% |

Series 5
Host: human
Matrix: microsomes or S9
Tested at: 2 µM
Time: 0.5 h
| SMILES | remaining compound |
| --- | --- |
| COc1ccccc1N1C(=O)c2c(NC(C)=O)c3cc(F)ccc3n2CC1(C)C(=O)NC1CCCC1 (centres unmarked) | 24.2% |
| COc1cccc(-c2nc3cnccn3c2NCCC(=O)Nc2ccc3c(c2)OCCO3)c1 | 2.39% |
| CCCc1cc(=O)[nH]c(-n2nc(C)cc2NC(=O)COc2ccccc2C)n1 | 26.2% |
| C[C@@H](C(=O)NOC(C)(C)C)N1C(=O)Nc2cc(Cl)cc(Cl)c2S1(=O)=O | > 99% |

Series 6
Organism: Sarcocystis neurona
Effect on: parasite growth
Tested at: 10 µM
Notes: secondary screen
| Structure (SMILES) | inhibition [%] |
| --- | --- |
| Cc1ccc(S(=O)(=O)NC(=O)NN2CCCCCC2)cc1 | -17.5 |
| CC1=C(/C=C/C(C)=C/C=C/C(C)=C\C(=O)O)C(C)(C)CCC1 | -52.7 |
| CCc1oc2ccccc2c1C(=O)c1cc(Br)c(O)c(Br)c1 | 1.8 |
| O=C(c1ccc(F)cc1)C1CCN(CCn2c(=S)[nH]c3ccccc3c2=O)CC1 | 66.7 |

Excerpt of the above (series 4):
| SMILES | viability |
| --- | --- |
| COc1ccc([C@@H]2CC(=O)c3c(O)cc(O[C@@H]4O[C@H](CO[C@@H]5O[C@@H](C)[C@H](O)[C@@H](O)[C@H]5O)[C@@H](O)[C@H](O)[C@H]4O)cc3O2)cc1O | 110% |
| CC(C)C(=O)c1c(C(C)C)nn2ccccc12 | 88.4% |
